Experimental data collected from several papers.
Lines come from different studies, so protocols differ. ± marks the error that the study gave.

Compound	cell line	assay	setting	how to read	endpoint	result
CCCCCCCCCCCCCCOC(=O)Nc1ccn([C@@H]2O[C@H](CO)[C@@H](O)C2(F)F)c(=O)n1	AsPC-1 cells	Transwell invasion	1 µM, 48 h		invading cells	62 ± 20 cells per field
COc1ccc(C2=Nn3c(NN=C4C(=O)N(C)c5ccc(Br)cc54)nnc3SC2)cc1	SF-295	cell growth or viability, SRB	10 µM		inhibition	10%
CC(CCC(=O)NCc1ccc(C(=O)Nc2ccccc2N)cc1)C1CCC2C3C(O)CC4CC(O)CCC4(C)C3CCC12C (stereo not shown)	cystic cholangiocytes (human)	immunoblot	2 µM, 24 h		histone H3K9 acetylation	increased
NS(=O)(=O)NCC(F)(F)c1ccccc1F	rat hippocampal neurons	neuroprotection	medium without antioxidants, with: glutamate 30 µM for 5 min		EC50	0.07 nM
Cc1ccc(C2=Nn3c(N/N=C4/C(=O)Nc5ccc(Br)cc54)nnc3SC2)cc1	SNB-75	cell growth or viability, SRB	10 µM		inhibition	18%
CC(=O)N[C@H](C(=O)N[C@H](C(=O)N[C@@H](CCCNC(=N)N)C(=O)N1Cc2ccccc2C[C@H]1C(=O)N[C@@H](Cc1ccccc1)C(N)=O)C1CCCCC1)C(C)C	MBP-specific BC-3 T cells	Bio-Plex multiplex, item: TNF-a	200 µg/mL, 24 h, with: MBP87-99 antigen		cytokine level	45.7 ± 34.9 pg/mL
Cc1ccc(=O)n(-c2ccc(NC(=O)[C@H](C)N(C)C)cc2)c1	NIH3T3	cell growth or viability, CCK-8	1 mM		inhibition	60.9%
CCCCCCCCCCCCCC[C@@H](O)[C@@H](O)[C@H](CO[C@H]1O[C@H](CO)[C@H](O)[C@H](O)[C@H]1O)NC(=O)CCCCCCCCCCc1ccc(OC)cc1	human Vα24+ NKT cells		10 ng/mL, 24 h, HeLa-CD1d co-culture, unit not given	relative to: α-GalCer	IFN-γ secretion	1.91 ± 0.19
COC(=O)[C@@H]1[C@@H](OC)[C@H](OC(=O)c2cc(OC)c(OC)c(OC)c2)C[C@@H]2CN3CC[C@]4(O[C@@H]3C(=O)[C@@H]21)C(=O)Nc1cc(OC)c(-c2ccc(C(F)(F)F)cc2)cc14	RS4;11	annexin V/PI flow cytometry	1 µM, 72 h		late apoptotic cells	45.9 ± 2.78%
O=C(c1ccc(Oc2ccc(C3CCCCC3)cc2)c([N+](=O)[O-])c1)C(Cl)Cl	NCI-H1650	cell growth or viability, MTT	2.5 µM		inhibition	> 95%
C=C(CC)C(=O)c1ccc(OCC(=O)NCCNC(=O)COc2ccc(C(=O)C(=C)CC)c(Cl)c2Cl)c(Cl)c1Cl	A549/DDP	cell growth, CCK-8	72 h		IC10	~500 nM
COc1cc(CNC(=O)C[C@H](C)CCC=C(C)C)ccc1OCc1cn(-c2cccc([N+](=O)[O-])c2)nn1	NCI-H226	SRB	10 µM, 48 h		growth percent	73.5%
CC(C)=CCc1c(O)ccc2c1O[C@H]1c3cc4c(cc3OC[C@@H]21)OC(C)(C)C=C4	3T3-L1 adipocytes	activator	up to 100 µM		glucose consumption	inactive
O=C(Nc1ccc(C(F)(F)F)cc1Cl)c1cc(Cl)ccc1O	CWR22Rv1 cells	total cell number	0.5 µM, 5 days		cell growth	decreased
CCC(=C(c1ccc(Cl)cc1)c1ccc(OCCCN(C)C)cc1)c1ccc(OC)cc1	SF-295	cell growth or viability, SRB			GI50	920 nM
Cc1cc([C@H](C(=O)N2C[C@H](O)C[C@H]2C(=O)N[C@@H](CC(=O)N2CCC(N3CCC(C#Cc4ccc(C(=O)N[C@H]5C(C)(C)[C@H](Oc6ccc(C#N)c(Cl)c6)C5(C)C)cc4)CC3)CC2)c2ccc(-c3scnc3C)cc2)C(C)C)on1	MDA-MB-453		1 µM, 24 h, with: 1 nM R1881		AR and FoxA1 expression	inhibited
O=C(c1ccncc1)N1N=C2/C(=C/c3ccc(Br)cc3)CCCC2C1c1ccc(Br)cc1 (stereo not shown)	human erythrocytes	HRBC membrane stabilization	concentration not given		membrane protection	82.6%

Compound	cell line	assay	setting	how to read	endpoint	result
C=C1C(=O)OC2C=C(C)CCC=C(C(=O)OC(C)C(C)(O)C(=O)OC3C(OC(C)=O)C(C(=O)OC)=CCCC(C)=CC4OC(=O)C(=C)C43)CC(OC(=O)C(C)=CC)C12 (stereo not shown)	HeLa	PI flow cytometry	3 µM, 48 h, unit not given	relative to: untreated	G2/M phase cells	2.7
COc1ccc2c(c1)c(CC(=O)Nc1nnc(CCCCc3ccc(NC(=O)Cc4cccc(OC(F)(F)F)c4)nn3)[se]1)cn2C	H22	EZMTT	concentration not given, 120 h		growth inhibition	60 to 80%
C[C@H](CC(=O)C[C@@H](C)[C@H]1C[C@H](O)[C@@]2(C)C3=C(C(=O)C[C@]12C)[C@@]1(C)CCC(=O)C(C)(C)[C@@H]1C[C@@H]3O)C(=O)O	3T3-L1 adipocytes		6.25 µg/mL		glucose consumption	11.3 ± 0.72 mmol/L
CCC(=O)N(C)c1ccc(Cl)c(Cl)c1	DBA/1 mouse splenocyte T cells		50 to 200 µM, with: anti-CD3/CD28		IL-6 secretion	decreased
O=Cc1c(O)ccc2ccccc12	HUVEC	RNA sequencing, item: FAM111B	75 µM, 24 h	relative to: DMSO	log2 fold change	-4.71
CCN(CC)C1CCN(Cc2cc(C#CCNc3ccccc3)cc(I)c2O)CC1	NUGC-4 p53 wild type		6.25 to 100 µM, 6 h		caspase 3/7 activity	no effect
N=C(N/N=C/c1ncc[nH]1)N/N=C/c1ncc[nH]1	KP-4		0.5 × IC50, with: 1 mM 2-deoxyglucose	relative to: compound alone	additional viability reduction	~50%
CC(=O)OC[C@H]1O[C@@H](Sc2sc(C(=O)c3ccc(C)cc3)c(N)c2-c2nc3ccccc3s2)[C@H](OC(C)=O)[C@@H](OC(C)=O)[C@H]1OC(C)=O	MDA-MB-435	SRB	10 µM, 48 h	relative to: untreated	growth	86.3%
COc1cc(CNC(=O)C[C@H](C)CCC=C(C)C)ccc1OCc1cn(-c2cccc(C(F)(F)F)c2)nn1	K562 leukaemia cells	SRB	10 µM, 48 h		growth percent	59%
COc1ccc([C@@H]2CC(=O)c3c(O)cc(O[C@@H]4O[C@H](CO[C@@H]5O[C@@H](C)[C@H](O)[C@@H](O)[C@H]5O)[C@@H](O)[C@H](O)[C@H]4O)cc3O2)cc1O	A549	Matrigel Transwell invasion	100 µg/mL, 48 h		invasion	37.1 ± 6.26%
Cc1ccc2c(n1)c1nc(C)ccc1c1nc3cc4ccccc4cc3nc21.[Ru+2].c1ccc(-c2cccc(-c3ccccn3)n2)nc1.c1ccncc1	M1 murine macrophages			relative to: dark EC50 over light EC50	phototherapeutic index	> 100
COc1cc(CNC(=O)C[C@H](C)CCC=C(C)C)ccc1OCc1cn(-c2ccccc2[N+](=O)[O-])nn1	NCI-H226	SRB	10 µM, 48 h		growth percent	56.9%
COc1ccc(-c2ocnc2-c2cc(Br)c(OC)c(OC)c2)cc1OCCCC(=O)NO	HepG2 and Huh-7	cell proliferation	0.1 to 1.0 µM		time to inhibition	12 h
COc1cc(CNC(=O)C[C@H](C)CCC=C(C)C)ccc1OCc1cn(-c2ccc(Br)cc2)nn1	NCI-H460	SRB	10 µM, 48 h		growth percent	74.2%
COc1ccc(S(=O)(=O)N(CC(=O)O)c2c(C)c(C)c(N(CC(=O)O)S(=O)(=O)c3cccnc3)c(C)c2C)cc1	H9c2	ELISA	10 µM, with: LPS 1 µg/mL		TNF-α secretion	decreased
COc1cc2c(cc1C)NC(=O)C2=Cc1c(Cl)[nH]c2c1ccc1ccccc12	NCI-60 panel mean		48 h		TGI	4790 nM
COc1cc(CNC(=O)C[C@H](C)CCC=C(C)C)ccc1O	NCI-H226	SRB	10 µM, 48 h		growth percent	101%
